# Assay results of several laboratories.
# Lines come from different studies, so protocols differ. Several values in a cell are separate wells, animals, samples, runs or records. ± marks the error that the study gave.
# NR1H4: Bile acid receptor (NR1H4, Homo sapiens, UniProt Q96RI1)
# KDR: Vascular endothelial growth factor receptor 2 (KDR, Homo sapiens, UniProt P35968)
# ALDH1A1: Aldehyde dehydrogenase 1A1 (ALDH1A1, Homo sapiens, UniProt P00352)
# MMP2: 72 kDa type IV collagenase (MMP2, Homo sapiens, UniProt P08253)
Structure (SMILES),target,assay,test system,conditions,IC50
COCc1cc2c(cn1)CN(C(=O)Nc1nc(-c3ccc(F)cc3)ccc1N)C2,"HDAC5 (Homo sapiens, UniProt Q9UQL6)","deacetylase activity, inhibitor, recombinant enzyme",,,> 30000 nM
C=CC1C(OC2OC(CO)C(O)C(O)C2O)OC=C(C(=O)OC)C1CC1CC(=O)CC(CCc2ccc(O)cc2)O1 (stereo not shown),"MAL12 (Saccharomyces cerevisiae S288c, UniProt P53341)","enzyme activity, inhibitor, absorbance",,,> 100000 nM
COc1cc2nccc(Oc3ccc(NC(=S)N(C)C)c(Cl)c3)c2cc1C(N)=O,"PDGFRB (Homo sapiens, UniProt P09619)",,,,311 nM
S=C(S)OC1CC2CC1C1CCCC21 (stereo not shown),"Angiotensin-converting enzyme (Mus musculus, UniProt P09470)","enzyme activity, inhibitor",,,44900 nM
CCC1(CC)C(=O)N(c2cccc(CN3CCN(c4cc(C)nc5ccc(Br)cc45)CC3)c2)C1=O,"Dipeptidyl peptidase 8 (Homo sapiens, UniProt Q6V1X1)","cell-free assay, inhibitor",,,292 nM
CC(C)CCC[C@@H](C)[C@H]1CCC([C@@H]2CC[C@H]3C[C@H](O)CC[C@]3(C)[C@H]2O)[C@]1(C)CC(=O)O (stereo partly shown),NR1H4,"transactivation, antagonist, SHP promoter luciferase reporter",HEK293T,added: GW4064 10 µM,4600 nM
COc1cc2nccc(Oc3ccc(NC(=S)NC(C)C)c(Cl)c3)c2cc1C(N)=O,KDR,,,,30.1 nM
O=C(O)c1ccccc1-c1c2ccc(=O)c(Br)c-2oc2c(Br)c(O)ccc12,"FTO (Homo sapiens, UniProt Q9C0B1)","enzyme activity, inhibitor, mass spectrometry",,,23800 nM
CCc1ccc(NC(=O)CNS(=O)(=O)c2nc(-c3ccc(OC(F)(F)F)cc3)cc(C(F)(F)F)n2)cc1,"WRN (Homo sapiens, UniProt Q14191)",inhibitor,,,~10 nM
Cc1ccccc1CN(CCC(C)C)c1nc(C#N)nc(N2CCOCC2)n1,"Procathepsin L (CTSL, Homo sapiens, UniProt P07711)","enzyme activity, inhibitor, fluorescence",,,14 nM
Cn1c(=O)c2c(nc(CN3CCN(C(=O)C4CC4)CC3)n2Cc2ccccc2)n(C)c1=O,ALDH1A1,,,,65 ± 14 nM
CCCc1c(OC)c(=O)c2c(O)c(C(=O)OC)c(OC)c3c4c(OC)c(C(=O)OC)c(O)c5c(=O)c(OC)c(CCC)c(c1c23)c54,protein kinase C,"enzyme activity, inhibitor",,whole enzyme,3500 nM
Cc1cc(=O)[nH]c2ccc(OCCCC(=O)N3CCOCC3)cc12,"PDE3A (Homo sapiens, UniProt Q14432)","enzyme activity, inhibitor, FP",,,700 nM
COc1ccc(/C=N/NC(=O)c2ccc(C(=O)N/N=C/c3ccc(OC)c(OC)c3)cc2)cc1OC,"Urease (Canavalia ensiformis, UniProt P07374)","enzyme activity, inhibitor",,,81700 nM
COC(=O)c1cc2c(Oc3ccc(NC(=S)NC4CC4)c(Cl)c3)ccnc2cc1OC,KDR,,,,28.1 nM
CSCCNC(=O)CCC(C)C1CCC2C3C(O)CC4CC(O)CCC4(C)C3CC(O)C12C (stereo not shown),NR1H4,"protein-protein interaction, antagonist",CHO-K1,added: GW4064 0.37 µM,19900 nM
COc1cc(O)ccc1CCC(c1ccc(O)cc1)c1cc2c(c(C)c1O)OC(c1ccc(O)cc1)CC2 (mixture of isomers),"PTGES (Homo sapiens, UniProt O14684)","enzyme activity, inhibitor",,,~1000 nM and 1600 nM
C[C@H]1CCCC[C@@H]1NC(=O)/C(C#N)=C/c1cn(-c2ccccc2)nc1-c1cccs1,"PTGS2 (Ovis aries, UniProt P79208)","enzyme activity, inhibitor, absorbance",,,760 nM
O=C(Nc1ccc2nc(NC(=O)c3ccco3)sc2c1)c1ccco1,"Nucleoside transporter 1 (Plasmodium vivax, UniProt A5K8B0)",[3H]adenosine uptake,target-expressing yeast,,1.8 ± 0.8 nM
CC(C)C[C@@H]1NC(=O)[C@H]([C@@H](C)O)NC(=O)[C@H](Cc2ccccc2)NC(=O)CNC(=O)[C@H](Cc2c[nH]c3ccccc23)NC(=O)[C@H](Cc2c[nH]cn2)NC(=O)[C@H](C)NC(=O)[C@@H](N)CCCCNC(=O)C[C@@H](C(N)=O)NC1=O,MMP2,inhibitor,,"1 h preincubation, 37 °C, added: APMA-activated enzyme",7560 nM
COc1cc2nccc(Oc3ccc(NC(=S)Nc4ccc(Cl)cc4F)c(Cl)c3)c2cc1C(N)=O,KDR,,,,308 nM
CC(C)c1ccc(Cn2ccc([C@H](C)[C@](O)(Cn3cnnn3)c3ccc(F)cc3F)n2)cc1,"Cytochrome P450 2D6 (CYP2D6, Homo sapiens, UniProt P10635)","enzyme activity, inhibitor","human, liver microsomes",,6240 nM
CC[C@H](C)[C@H](NC(=O)[C@H](CC(C)C)NC(=O)[C@H](CCCNC(=N)N)NC(=O)c1ccc(CN2CCN(C)CC2)cc1)C(=O)N[C@@H](Cc1ccccc1)C(N)=O,"Cyclin-A2, with CDK2 (CCNA2, Homo sapiens, UniProt P20248)","binding to cyclin groove, inhibitor, fluorescence polarization competition",,,7920 ± 1390 nM
O=C1C2CC3CC1CC(C(=O)N1CCN(c4ccc([N+](=O)[O-])c5ncccc45)CC1)(C3)C2,"TLR8 (Homo sapiens, UniProt Q9NR97)",reporter gene,,,1260 nM
C=CCc1ccc(O)c(-c2cc(CC=C)ccc2OCCCCCCCCCC[P+](c2ccccc2)(c2ccccc2)c2ccccc2)c1,mitochondrial complex I,"complex I-dependent oxygen consumption rate, inhibitor",G-361,24 h,190 nM
"CC1(C)C2CC3C(c4ccccc4)c4c(O)c(C=O)c(O)c(C=O)c4OC3(C)C1C2 (single isomer, unassigned; (+))","PFKL (Homo sapiens, UniProt P17858, K677R)","enzyme activity, inhibitor",,,> 100000 nM
CC(C)S(=O)(=O)c1ccc(S(=O)(=O)C(C)C)c(O)c(=O)c1O,"Ribonuclease H1 (Homo sapiens, UniProt O60930)","enzyme activity, inhibitor",,,> 500000 nM
Cc1cccc(Cn2c(CN3CCN(C(=O)C4CC4)CC3)nc3c2c(=O)n(C)c(=O)n3C)c1,ALDH1A1,,,,33 ± 5 nM
NC1CCC(Nc2nccc(-c3cccnc3Oc3cccc4c(NS(=O)(=O)C5CCC5)cccc34)n2)CC1 (stereo not shown),"Serine/threonine-protein kinase/endoribonuclease IRE1, RNase domain (ERN1, Homo sapiens, UniProt O75460)","RNase activity, inhibitor",,added: XBP1 mini-substrate,42 ± 5 nM
COc1cc2nccc(Oc3ccc(NC(=S)NC4CC4)c(Cl)c3)c2cc1C(=O)NO,KDR,,,,20.1 nM
CC(C)c1ccc(CN2CCN(CC(=O)c3ccc4[nH]c(=O)[nH]c4c3)CC2)cc1,"DNA dC->dU-editing enzyme APOBEC-3A (Homo sapiens, UniProt P31941)","deaminase activity, inhibitor, alkaline cleavage","293T lysate, untagged",,9000 nM
CC1CC(=O)NN=C1c1ccc(NC(=O)N2Cc3ccncc3C2)cc1 (stereo not shown),"NAMPT (Homo sapiens, UniProt P43490)","enzyme activity, inhibitor",,,1.6 nM
O=C(CNc1nc(NNC(=O)c2ccc(Nc3nc(Nc4ccc(C(=O)NNc5nc(NCC(=O)NO)nc(N6CCCCC6)n5)cc4)nc(Nc4ccc(C(=O)NNc5nc(NCC(=O)NO)nc(N6CCCCC6)n5)cc4)n3)cc2)nc(N2CCCCC2)n1)NO,MMP2,"enzyme activity, inhibitor, fluorescence",,,98 nM
C#CCCNC(=O)[C@@H](NC(=O)N[C@H](C(=O)N[C@H]1/C=C/CCNC(=O)/C=C/[C@H](C(C)C)NC1=O)C(C)C)C(C)C,"Psmb5 (Mus musculus, UniProt O55234)","chymotrypsin-like activity, inhibitor",mouse constitutive proteasome,added: Suc-LLVY-AMC,2.1 nM

# For quick reference, copied from above:
Structure (SMILES),target,assay,test system,conditions,IC50
O=C1C2CC3CC1CC(C(=O)N1CCN(c4ccc([N+](=O)[O-])c5ncccc45)CC1)(C3)C2,"TLR8 (Homo sapiens, UniProt Q9NR97)",reporter gene,,,1260 nM
CC[C@H](C)[C@H](NC(=O)[C@H](CC(C)C)NC(=O)[C@H](CCCNC(=N)N)NC(=O)c1ccc(CN2CCN(C)CC2)cc1)C(=O)N[C@@H](Cc1ccccc1)C(N)=O,"Cyclin-A2, with CDK2 (CCNA2, Homo sapiens, UniProt P20248)","binding to cyclin groove, inhibitor, fluorescence polarization competition",,,7920 ± 1390 nM
CC(C)S(=O)(=O)c1ccc(S(=O)(=O)C(C)C)c(O)c(=O)c1O,"Ribonuclease H1 (Homo sapiens, UniProt O60930)","enzyme activity, inhibitor",,,> 500000 nM
"CC1(C)C2CC3C(c4ccccc4)c4c(O)c(C=O)c(O)c(C=O)c4OC3(C)C1C2 (single isomer, unassigned; (+))","PFKL (Homo sapiens, UniProt P17858, K677R)","enzyme activity, inhibitor",,,> 100000 nM
S=C(S)OC1CC2CC1C1CCCC21 (stereo not shown),"Angiotensin-converting enzyme (Mus musculus, UniProt P09470)","enzyme activity, inhibitor",,,44900 nM
